Results of several laboratories.
Each line is one published result; not all experiments were run side by side. Values joined by “and” are separate records of one study, mostly repeats; a detail may differ. ± gives the spread as reported.

SMILES | tested on | assay | test system | conditions | scale | quantity | value
CC(C)c1ccc(N(C)c2ccc3c(c2)OCC[C@H]3CNc2cnccc2C(=O)O)cc1 | SCC-4 | cell viability |  | 7 days |  | IC50 | 10.5 nM
CCCCCCc1cccc([C@H](O)C[C@H](CO)NC(=O)CCCCCCCCCCBr)c1 | HeLa | CERT activity, HPLC-MS/MS lipidomics, refers to: sphingomyelin 16 |  | 1 µM, 24 h, not cell-number normalised |  | sphingomyelin level | 636000 pmol/sample and 645000 pmol/sample and 519000 pmol/sample
COc1ccccc1-c1ccncc1C(=O)Nc1nnc(OCc2ccc(Cl)cc2)s1 | PEO1 BRCA2-mutant |  |  | 1.00 µM, together with: olaparib 0 µM | baseline: vehicle control | colony survival | 49.5%
O=C(C[Se]C(=O)c1cc2ccccc2o1)Nc1cccc(C(F)(F)F)c1 | NCI60 ovarian subpanel | cell growth, inhibitor |  | five-dose |  | GI50 | 1750 nM
CCN(CC)CC(=O)Nc1cccc(-n2cc(-c3ccc4ccc(-c5cn(-c6cccc(NC(=O)CN(CC)CC)c6)nn5)cc4c3)nn2)c1 | RCC4 | PCR angiogenesis array, refers to: HIF1A |  | 5 x IC50, 4 h, normoxia | baseline: untreated | fold regulation | -1.14
O=C(C[Se]C(=O)c1ccccc1Nc1ccccc1)Nc1cccc(C(F)(F)F)c1 | NCI60 non-small-cell lung subpanel | cell growth |  | 10 µM, 48 h, one-dose |  | mean growth percent | -81.9%
COC1CN([C@H]2CC[C@H]([C@@]3(C)Oc4c(Cl)cc(C(=O)NCc5c(SC)cc(C)[nH]c5=O)c(C)c4O3)CC2)C1 |  | RNA-seq, refers to: ZBTB46 mouse homolog | mouse, HT-1376 xenograft, whole blood | dose not given | baseline: vehicle | log2 fold change | 0.555
Cc1cc(Cl)cc(-c2ccnc3cc(CN4C(=O)C5C(C4=O)C5(C)C)sc23)c1C[C@@H]1CNCCO1 (stereo partly shown) | CHP-212 parental | SRB |  | 625 nM |  | viability | 36.9%
CC(C)Cc1ccc(C(C)C(=O)[Se]CC(=O)Nc2cccc(C(F)(F)F)c2)cc1 (stereo not shown) | NCI60 non-small-cell lung subpanel | cell growth |  | 10 µM, 48 h, one-dose |  | mean growth percent | -90%
C=C(NC(=O)c1csc(-c2nc3c(cc2O)-c2nc(cs2)C(=O)NC(C(C)O)C(=O)NC(=C(C)OC)c2nc(cs2)C(=O)NC2c4nc(cs4)C(=O)NC(COC(=O)c4c5c6c(cccc6n4O)COC(=O)C(OC4CC(C)(O)C(N(C)C)C(C)O4)C2OC5)c2nc-3cs2)n1)C(N)=O (stereo not shown) |  |  | female Sprague-Dawley rat, plasma | intravenous, 2 mg/kg, single dose, infusion |  | Cmax | 2890 ng/mL
CO[C@@H]1[C@@H](OC(N)=O)[C@@H](O)[C@H](Oc2ccc3c(O)c(NC(=O)c4ccc(O)c(CC=C(C)C)c4)c(=O)oc3c2C)OC1(C)C | HCT-116 BRCA2 wild-type |  |  | 75 µM, mean of replicates A, B | baseline: untreated | colony survival | 87.4%
Cc1ncsc1-c1ccc(C(C)NC(=O)C2CC(O)CN2C(=O)C(NC(=O)CCCCCCCCCCN2CCCC(Nc3ncc(Cl)c(Nc4ccccc4S(=O)(=O)C(C)C)n3)C2)C(C)(C)C)cc1 (stereo not shown) | 22Rv1 | RNA-seq, refers to: TCEANC2 mRNA |  | concentration not given | baseline: DMSO | log2 fold change | -1.93
CC[C@H](CO)Nc1nc(NCc2ccc(-c3ccccn3)cc2)c2ncn(C(C)C)c2n1 | MOLT-4 | tandem mass tag proteomics, refers to: IREB2 |  | 1 µM, 1 h | baseline: DMSO | log2 fold change | 1.07
CC(=O)OC[C@H]1O[C@@H](n2cc(CSc3nc4ccccc4n3Cc3cn([C@@H]4O[C@H](COC(C)=O)[C@@H](OC(C)=O)C(OC(C)=O)[C@H]4OC(C)=O)nn3)nn2)[C@H](OC(C)=O)C(OC(C)=O)[C@@H]1OC(C)=O (stereo in doubt) | HEK293 | MTT |  | 125 ppm |  | cytotoxicity | 77.7%
C=CC(=O)N1[C@H](c2ccc3c(c2)OCO3)c2[nH]c3ccccc3c2C[C@@H]1C(=O)NC1CC1 | rat DRG neurons |  |  | 3.333 µM, 48 h, together with: vincristine 40 nM |  | neuron degeneration | 20.3% and 17.1%
CN1CCCNC(=O)c2cccc(c2)C(=O)NCCCN(C)CCCNc2cccc3c2C(=O)c2cccc(c2C3=O)NCCC1 | SAS | RNA-Seq, refers to: ZNF462 mRNA |  | 1 µM, 6 h | baseline: untreated cells | log2 fold change | -1.18
C=CC(=O)Nc1cccc(Cn2ncc3cnc(Nc4cnn(CCOC)c4)nc32)c1 | CAMK2G human | binding, KINOMEscan |  | 100 nM | lower = stronger binding | percent of control | 100%
COC(=O)c1cc(NC2=NC(=O)C(=Cc3ccc(N(C)C)cc3)S2)ccc1OC(C)=O | MCF7 | GC-MS, refers to: Spermidine |  | 1 µM | baseline: DMSO | metabolite level | 0.13 fold change
Cn1ncc2cc(-c3cncc(Cl)c3N3CCC4(CCNC4=O)CC3)ccc21 | LS174T | gene expression, microarray, refers to: DDIT4 mRNA |  | concentration not given, 4 h | baseline: untreated cells | log2 fold change | 1.18

SMILES | tested on | assay | test system | conditions | scale | quantity | value
CC1(C)C[C@@H](Nc2cccc(-c3sc(C(=O)O)c(OCC(=O)O)c3Cl)c2)CCN1S(=O)(=O)Cc1cccc(NC(=O)CN2CCC(c3ccc4c(c3)oc(=O)n4C3CCC(=O)NC3=O)CC2)c1 (stereo partly shown) | B16-F10 | HTRF, refers to: phospho-STAT1 Tyr701 |  | 0.014 µM, together with: IFN-γ | baseline: min-max normalised | pSTAT1 level | 2.87% and 2.77% and 3.16% and 3.82% and 2.69% and 2.96%
Cc1nc(=S)[nH]c(C)c1/N=N/c1nnc(S)s1 | Vero | cell viability, MTT |  | 0.625 µg/mL |  | inhibition | 11 ± 0.173%
O=C(C[Se]C(=O)c1cccnc1Nc1cccc(C(F)(F)F)c1)Nc1cccc(C(F)(F)F)c1 | NCI60 ovarian subpanel | total growth inhibition, inhibitor |  | five-dose |  | mean TGI | 3800 nM
Cc1ccc([N+](=O)[O-])cc1S(=O)(=O)N(C)/N=C/c1cnc2ccc(Br)cn12 | HuT78 | Wnt/beta-catenin signalling, NanoString IPA |  | 50 nM, 10 h | direction not given | activation z-score | 1.15
Nc1ncc(-c2cc(-c3cnn(CC(F)(F)F)c3)ncc2F)nc1C(=O)NC1CNCC(F)C1 (stereo not shown) | PIK3CA | KINOMEscan |  | 1 µM | baseline: DMSO control | remaining binding | 87%
CCOc1cncc(-c2ccc(NC(=O)C3(c4ccnc(NS(=O)(=O)C5CC5)n4)CCOCC3)nc2)n1 | MEG-01 | cell proliferation, CellTiter-Glo |  | 72 h |  | IC50 | 1270 nM
C1=[N+]2CCCC[N+]3=Cc4ccc5[n]4[Au-]23[n]2c1ccc2-c1nc2ccccc2nc1-5.F[P-](F)(F)(F)(F)F | UACC-62 | NCI60 five-dose screen |  |  |  | TGI | 4.28 -log M
O=C(N1CCCC1)n1cc(-c2ccc(-c3ccccc3)cc2)nn1 | mouse T cells | N-terminal labelling proteomics, refers to: NDRG1 N-terminal peptides |  | 0.001 µM, 6 h | baseline: DMSO | SILAC ratio | 1.24
COP(=O)(OC)OC[C@H]1OC(O)(COP(=O)(OC)OC)[C@@H](O)[C@@H]1O (stereo partly shown) | HepG2 sgCTRL | CCK-8 |  | concentration not given | baseline: control | cell proliferation | 83% and 53.7% and 70.1%
Cc1c(Cl)cccc1Nc1ccccc1C(=O)[Se]CC(=O)Nc1cccc(C(F)(F)F)c1 | NCI60 ovarian subpanel | cell growth |  | 10 µM, 48 h, one-dose |  | mean growth percent | -76.4%
CCN(C(=O)c1cc(F)ccc1Oc1nncnc1N1CCC2(C1)CN([C@H](CCCN(C)CCOC)C(C)C)C2)C(C)C | SF-268 |  | brain | 72 h |  | GI50 | > 10000 nM
O=C(Nc1nnc2c1c(-c1ccc(Cl)cc1)nc1sc(=Cc3ccco3)c(=O)n12)c1ccccc1 (mixture of isomers) | SF-295 | SRB |  | 10 µM, NCI60 single-dose screen | baseline: untreated | cell growth | 51%
CC(=O)NCCCN(C)CCCNc1cccc2c1C(=O)c1cccc(NCCCN(C)CCCNC(C)=O)c1C2=O | SAS | RNA-Seq, refers to: IL18R1 mRNA |  | 1 µM, 24 h | baseline: untreated cells | log2 fold change | -3.12
COc1ccc(NC(=O)c2ccc3[nH]c(-c4ccc(N(C)C)cc4)nc3c2)cn1 | HCEC-hTERT | IncuCyte |  | concentration not given, 22 h |  | dead cell to confluence ratio | 65.4 and 2.4 and 12.1
O=C(C[Se]C(=O)c1ccc2ccccc2c1)Nc1cccc(C(F)(F)F)c1 | NCI60 ovarian subpanel | cell growth, inhibitor |  | five-dose |  | GI50 | 1740 nM
COc1ccccc1[C@H](Cn1c(=O)n(C(C)(C)C(N)=O)c(=O)c2c(C)c(-c3ncco3)sc21)OC1CCOCC1 | NCI-H157 | cell proliferation, inhibitor |  | 168 h |  | EC50 | 53 nM
CN(C)CCN1CCN(c2ccc3nc(-c4ccc5nc(-c6ccc(C(F)(F)F)cc6)[nH]c5c4)[nH]c3c2)CC1 | SR | SRB |  | 10 µM, 48 h |  | growth percent | 17.7%
CNS(=O)(=O)Nc1nccc(Cc2c(C)c3ccc(Oc4ncccc4F)cc3oc2=O)c1F | Lu-99 | cell viability |  | 7 days |  | IC50 | 124 nM

Repeated from above:
SMILES | tested on | assay | test system | conditions | scale | quantity | value
CCCCCCc1cccc([C@H](O)C[C@H](CO)NC(=O)CCCCCCCCCCBr)c1 | HeLa | CERT activity, HPLC-MS/MS lipidomics, refers to: sphingomyelin 16 |  | 1 µM, 24 h, not cell-number normalised |  | sphingomyelin level | 636000 pmol/sample and 645000 pmol/sample and 519000 pmol/sample
COc1ccccc1-c1ccncc1C(=O)Nc1nnc(OCc2ccc(Cl)cc2)s1 | PEO1 BRCA2-mutant |  |  | 1.00 µM, together with: olaparib 0 µM | baseline: vehicle control | colony survival | 49.5%
O=C(C[Se]C(=O)c1cc2ccccc2o1)Nc1cccc(C(F)(F)F)c1 | NCI60 ovarian subpanel | cell growth, inhibitor |  | five-dose |  | GI50 | 1750 nM
CCN(CC)CC(=O)Nc1cccc(-n2cc(-c3ccc4ccc(-c5cn(-c6cccc(NC(=O)CN(CC)CC)c6)nn5)cc4c3)nn2)c1 | RCC4 | PCR angiogenesis array, refers to: HIF1A |  | 5 x IC50, 4 h, normoxia | baseline: untreated | fold regulation | -1.14
O=C(C[Se]C(=O)c1ccccc1Nc1ccccc1)Nc1cccc(C(F)(F)F)c1 | NCI60 non-small-cell lung subpanel | cell growth |  | 10 µM, 48 h, one-dose |  | mean growth percent | -81.9%
COC1CN([C@H]2CC[C@H]([C@@]3(C)Oc4c(Cl)cc(C(=O)NCc5c(SC)cc(C)[nH]c5=O)c(C)c4O3)CC2)C1 |  | RNA-seq, refers to: ZBTB46 mouse homolog | mouse, HT-1376 xenograft, whole blood | dose not given | baseline: vehicle | log2 fold change | 0.555
